Assay results pooled from the literature.
Numbered parts are unrelated; each lists some results of a single study.

Series 1
Target: Histone acetyltransferase KAT6A, both winged helices, GST fusion (KAT6A, Homo sapiens, UniProt Q92794, residues 1-181)
Method: protein binding microarray
Molecule type: double-stranded DNA, one strand shown
Sample: in vitro
Tested at: not given
Notes: 8-mer, flanks averaged, mean of 2 arrays, mostly near background
Relative to: not given
Reading: higher = stronger binding
Construct (chain): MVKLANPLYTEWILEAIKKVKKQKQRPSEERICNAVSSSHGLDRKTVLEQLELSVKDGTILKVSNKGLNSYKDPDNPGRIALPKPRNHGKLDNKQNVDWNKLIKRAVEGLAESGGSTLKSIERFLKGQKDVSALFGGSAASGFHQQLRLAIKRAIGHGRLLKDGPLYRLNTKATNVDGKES
Oligonucleotide	E-score
TACGTCAA	-0.0406
CCTTCACG	0.13
CCTTACTA	-0.163
CATTACGA	0.0987
ATCATAGC	-0.0809
CATGCTAC	-0.0826
GATTAACA	0.0106
CTAGCGTA	0.065
CTCTTTCA	-0.144
ACTAGCAA	-0.17
ATGAACGG	0.13
AGAAGGCG	-0.087
CTCACTAC	-0.161
ATAGGGGG	-0.267
ATTCCCAG	-0.0534
AGACGGAC	0.145
GACGTGAA	0.0431
GGCATCAC	0.0813
TAAATATA	-0.0498

Series 2
Target: Sal-like protein 4, full length isoform B (SALL4, Homo sapiens, UniProt Q9UJQ4-2, residues 1-616)
Method: universal PBM
Molecule type: double-stranded DNA, one strand shown
Sample: in vitro
Tested at: not given
Notes: 8-mer, flanks averaged, mean of replicates
Reading: higher = stronger binding
Residues (chain): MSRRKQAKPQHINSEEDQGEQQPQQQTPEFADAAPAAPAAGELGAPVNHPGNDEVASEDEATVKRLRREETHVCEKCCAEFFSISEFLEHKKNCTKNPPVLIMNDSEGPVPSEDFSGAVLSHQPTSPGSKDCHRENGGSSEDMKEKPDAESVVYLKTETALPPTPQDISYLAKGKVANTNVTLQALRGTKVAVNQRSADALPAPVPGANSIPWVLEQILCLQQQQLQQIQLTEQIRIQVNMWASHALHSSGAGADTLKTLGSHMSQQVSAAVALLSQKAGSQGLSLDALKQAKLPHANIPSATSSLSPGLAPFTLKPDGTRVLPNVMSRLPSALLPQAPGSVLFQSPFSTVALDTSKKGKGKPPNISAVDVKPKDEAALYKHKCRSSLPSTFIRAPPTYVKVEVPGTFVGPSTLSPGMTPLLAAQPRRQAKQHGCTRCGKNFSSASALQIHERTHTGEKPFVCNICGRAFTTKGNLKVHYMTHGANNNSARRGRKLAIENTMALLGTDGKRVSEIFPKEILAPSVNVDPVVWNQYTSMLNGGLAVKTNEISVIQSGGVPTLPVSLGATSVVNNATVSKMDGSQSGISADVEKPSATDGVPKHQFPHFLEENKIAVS
Oligonucleotide	E-score
AGGACGTG	-0.0915
AGTTCGTG	-0.183
CCGCTTAA	-0.0343
AAACGACA	0.00392
ATGTTCGA	0.0988
GTACGTAA	0.276
AACTTCTC	0.0785
TCGTGCCA	-0.211
AACTTGTG	0.0871
AGTCCTCG	-0.222
TCGCAAGA	-0.125
AATCACAA	0.137
TACGTAGA	0.162
AAAATACC	0.153
ATCGCAGC	-0.0837
GGAAACAA	-0.0186
AGACCCGC	-0.277
GTGCGAAC	-0.24
AATGATGC	0.0786

Series 3
Target: Transcriptional repressor CTCF (CTCF, Homo sapiens, UniProt P49711, residues 1-727, full length assumed)
Sequence of UniProt P49711 (whole entry, looked up): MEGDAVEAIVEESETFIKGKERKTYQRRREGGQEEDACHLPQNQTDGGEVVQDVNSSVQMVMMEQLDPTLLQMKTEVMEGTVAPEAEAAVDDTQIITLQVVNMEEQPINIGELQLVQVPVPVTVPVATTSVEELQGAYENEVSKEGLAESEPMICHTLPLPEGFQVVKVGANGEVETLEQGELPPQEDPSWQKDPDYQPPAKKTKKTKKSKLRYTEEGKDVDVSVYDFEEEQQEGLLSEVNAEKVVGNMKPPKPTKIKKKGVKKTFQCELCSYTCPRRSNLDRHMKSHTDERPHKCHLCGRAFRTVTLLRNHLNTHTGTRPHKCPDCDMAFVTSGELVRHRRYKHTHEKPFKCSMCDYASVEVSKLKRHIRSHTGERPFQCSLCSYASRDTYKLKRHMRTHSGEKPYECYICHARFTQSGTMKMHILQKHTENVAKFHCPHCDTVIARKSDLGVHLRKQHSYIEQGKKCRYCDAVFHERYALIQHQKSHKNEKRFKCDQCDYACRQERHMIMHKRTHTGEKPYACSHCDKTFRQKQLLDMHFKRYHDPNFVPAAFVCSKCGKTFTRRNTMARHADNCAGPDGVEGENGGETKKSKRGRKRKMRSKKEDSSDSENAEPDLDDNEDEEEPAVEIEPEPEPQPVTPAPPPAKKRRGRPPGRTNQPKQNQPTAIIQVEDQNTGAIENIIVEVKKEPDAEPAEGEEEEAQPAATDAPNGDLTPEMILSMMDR
Method: protein-binding microarray
Molecule type: double-stranded DNA, one strand shown
Sample: in vitro
Tested at: not given
Notes: k-mer, scored over probes, only values ≥0.25
Reading: higher = stronger binding
Oligonucleotide	E-score
ACGCGCAA	0.32
GTATCATA	0.279
ATAACAAG	0.306
GCTATATA	0.338
AAAAGGCC	0.285
TATAACAA	0.31
CGCGCATC	0.28
GGATTGCA	0.292
GGTGGGGA	0.375
TATGCGAA	0.284
GGAGTAAA	0.253
CCCCGCCA	0.285
GCGCAATA	0.377
CTTATAAC	0.322
ATTAGTTA	0.32
ACATAAAT	0.288
CACCAGGG	0.252
CGAAATAA	0.281
AATTATCC	0.275
ATGTATAG	0.264
ACGCCCCC	0.39
ATCACATA	0.271
CGTATATA	0.34
GCGCCGTA	0.282
ATGCACAT	0.284

Series 4
Target: RING finger protein unkempt homolog, zinc fingers 1-6, GST-SBP tag (UNK, Homo sapiens, UniProt Q9C0B0, residues 30-357)
Sequence of UniProt Q9C0B0 (30-357, looked up): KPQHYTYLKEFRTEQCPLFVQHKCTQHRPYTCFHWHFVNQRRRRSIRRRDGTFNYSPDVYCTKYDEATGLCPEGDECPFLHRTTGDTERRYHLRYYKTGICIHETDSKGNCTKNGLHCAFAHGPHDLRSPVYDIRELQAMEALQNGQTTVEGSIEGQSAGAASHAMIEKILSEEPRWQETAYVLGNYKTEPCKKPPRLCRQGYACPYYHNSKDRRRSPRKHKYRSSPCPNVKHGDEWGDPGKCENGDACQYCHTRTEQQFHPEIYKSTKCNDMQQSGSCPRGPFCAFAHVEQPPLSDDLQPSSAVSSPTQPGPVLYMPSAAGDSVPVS
Method: RNA Bind-n-Seq
Molecule type: RNA
Sample: in vitro
Tested at: not given
Notes: RNA with constant flanks, human and mouse sites, ends assumed
Relative to: input RNA pool
Reading: higher = stronger binding
Oligonucleotide	bound/input enrichment [ratio]
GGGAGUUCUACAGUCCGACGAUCAGUAUGAAUAUGAAGAGUAGAUUUGAUAUCAAAUCAAUGGCAGGGAACAUUAUUCCUGCUAUUGCUACUACUAAUGCAGUAAUUGCUGGGUUGAUAGUAUUGGAAGGAUUGAAGAUUUUACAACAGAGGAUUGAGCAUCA	0.311
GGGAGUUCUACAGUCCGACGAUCCCUGACGGCCAGGUCAUCACUAUUGGCAAUGAGCGGUUCCGAUACCCUGAGGCUCUUUUCCAGCCUUCCUUCUUGGGUAUGGAAUCCUGUGGCAUCCACGAAACUACAUUCAAUUCCAUCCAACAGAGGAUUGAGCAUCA	0.111
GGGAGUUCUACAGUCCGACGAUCAAAGUCACCUCUCCUGUGUUGGUCAUUCAUGGUACAGAGGAUGAGGUCAUCGAUUUCUCCCAUGGCCUAGCGAUGUACGAGCGCUGUCCCCGAGCCGUGGAGCCCCUUUGGGUUGAAGGGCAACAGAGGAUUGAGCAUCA	0.127
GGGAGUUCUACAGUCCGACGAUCAGUCGAGGCGCAACAAGACCCAACGGGCCAAAUACGGGAAAUAAAAUAUGCCAGUUCAAACUAGUACUUCUGGGAGAGUCCGCUGUUGGCAAAUCAAGCCUAGUGCUUCGUUUUGUGAAACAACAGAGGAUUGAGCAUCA	0.275
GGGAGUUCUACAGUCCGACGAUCUCCGCUCGGAAAAUGCGCCUGGGAGAUGCUGUUGAACAGGGUGUGAUUAAUAACACAGUAUUAGGCUAUUUCAUUGGCCGCAUCUACCUCUACCUCACGAAGGUUGGAAUAUCUCCAGAUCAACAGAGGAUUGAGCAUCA	0.137
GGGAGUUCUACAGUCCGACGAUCCCCAAGGACAGGUGGAAUAACACUCCCAUGGAUGAAGCACUGCACUUUGGACACCAUGAUGUAUUUAAAAUUCUCCAAGAAUACCAAGUCCAGUACACACCUCAAGGAGAUUCUGACAACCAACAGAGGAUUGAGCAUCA	0.228
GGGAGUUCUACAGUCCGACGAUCGAUGACAUCAUUCGGCAUGACUUCUUCCUGCAGGGUUUCACUCCGGACAGACUCUCUUCCAGCUGUUGCCACACAGUUCCAGAUUUCCACUUGUCAAGCCCAGCCAAGAAUUUCUUUAAGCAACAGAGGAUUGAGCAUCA	0.215
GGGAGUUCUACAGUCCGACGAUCCACCCCACCCCACCCCCGGUGGUACCUUAAAGAGAUUAAAUGCAAACAUUCCUUGCUGAGUUUGUAGCUUAAAGGCCUGAGAAGCACUGGCACCUUUUCUCUAUGAUGGUUUGCUAGUCGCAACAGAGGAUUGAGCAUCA	0.7
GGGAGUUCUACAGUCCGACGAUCAGCCUGGGCAUUUCUGCAUUUGUGCCAGCUAACACUACAAAAUAGACUUAAUUAGAGAAAUUUAGACCCAGAAUUGCAGCUUCAACAACACAAAACAGGAAAGCUAGAAGAGGUUGCUGUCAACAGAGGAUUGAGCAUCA	37.7
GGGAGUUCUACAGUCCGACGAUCGGUAUCGCUGUUGAUCACCUUGGCCGCAACAUCUUCUGGACAGACUCUAACCUGGAUCGAAUAGAAGUGGCGAAGCUGGACGGCACGCAGCGCCGGGUGCUCUUUGAGACUGACUUGGUGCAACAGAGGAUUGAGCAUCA	0.213
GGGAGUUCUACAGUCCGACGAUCGCCCACUUAACUGUGAAAAAGAUAUUUGUUGGUGGCAUUAAAGAAGACACUGAAGAACAUCACCUAAGAGAUUAUUUUGAACAGUAUGGAAAAAUUGAAGUGAUUGAAAUCAUGACUGACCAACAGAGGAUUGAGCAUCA	0.144

Series 5
Target: RNA binding protein fox-1 homolog 2, RRM domain, GST-SBP tag (RBFOX2, Homo sapiens, UniProt O43251-10, residues 100-194)
Method: RNA Bind-n-Seq
Molecule type: RNA
Sample: in vitro
Tested at: 365 nM
Notes: natural RNA segment, single round, ends assumed
Relative to: no-protein control
Reading: higher = stronger binding
Residues (chain): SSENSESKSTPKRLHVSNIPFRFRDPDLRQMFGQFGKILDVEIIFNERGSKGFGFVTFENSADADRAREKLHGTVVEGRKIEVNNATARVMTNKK
Oligonucleotide	RBNS enrichment (R)
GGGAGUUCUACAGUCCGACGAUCUAAGCAUCUCAGAUCUGCAGUAUUGUGGUGGUGCUCCACUGAGCAGGAGUCCACUCAGAAGCAUGAGAACGGCCUGUAAUCCAGGCCGUGUCCUGCCACUAUGCCUGUAUUGGAAUUCUCGGGUGCCAA	1.55
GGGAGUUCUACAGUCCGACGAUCCCCAUGGAGAAAUGGAGACAUCUUGUCCCCACCUGAGGAGUGGACAUCUGCCUGAUUCUUGCCAACACGAGGGGUGGAAAUGGGAGAAAAAGCUUUUAGUUGCUAAUUUGUGGAAUUCUCGGGUGCCAA	0.374
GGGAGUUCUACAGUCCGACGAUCACUUUCAGGAGCCUCAGGAUCAGUCCUCUAGCAUUUCCUUCACCUUUCUCAUGUACAGGGGCAGCGUGUCUGUGUGUGGAGGGUCCGGGUUACAAGGUAAGCUAGGUUGCUGGAAUUCUCGGGUGCCAA	0.325
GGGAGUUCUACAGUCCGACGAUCAACUUAAAUAUCUUUUUGAUGGUGGUGUUUCUUUGUGACUGAGCCAGUAGACUCACACUAUAUGCUUUUUUGGGUUUGCCCGUUCCUUCCCCCACCCCCCCAGUUUUUUCUGGAAUUCUCGGGUGCCAA	0.534
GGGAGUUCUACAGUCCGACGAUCUCUCAGUCGAUGAGCCCUCGUCUGACUGACCAGAGUGGCCCAGCUUCUAUUCAAUUGGGAAAAUUUGAACCAAAGCAGAUUUCUUCAGGGCUGAGGGUCUCCAACCGAUGUGGAAUUCUCGGGUGCCAA	0.387
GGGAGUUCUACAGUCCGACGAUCGCUUCUCCUCAGAGCCAGGCCCUGACUUGCCUUCUCCCACCCCGUGGACCGCUUCCCCUGCCUUCUCUCUGCCGUGGCCCAGAGCCGGCCCAGCUGCACACACACACCAUUGGAAUUCUCGGGUGCCAA	0.683
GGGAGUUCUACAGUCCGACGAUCUGCCAGAUACUUCAAUCUCAGAAUUACUAAGAAUCUGGCAGAAGUCCAGAGAAAAGAAAGUAUAAUUGGAAAAUAAAUGUUACACUGGGGUGAAUCUGAAAAAGGGUGGUUGGAAUUCUCGGGUGCCAA	0.568
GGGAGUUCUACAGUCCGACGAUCAUUUUUAAAGCUGCUUCCUGUUUGUUGAGGGUCUGUAUUCAUAGACCUUGACUGGAAUAUGUAAGACUGUGCAAAAAAAAAAAAAAAAUUUAUGUGUAUUCUUAUUCAAAUGGAAUUCUCGGGUGCCAA	1.11
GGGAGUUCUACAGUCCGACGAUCUCCACUCCCACUGCCAGGAUUUUGUAUUGCCAUCGGGUGCCAAAUAAAUGCUCAUAUUUAUUACUGAUGUGUGCUCAAUAUCUGUUUCUGUAGAUACUCAGUCCUCUGAAUGGAAUUCUCGGGUGCCAA	0.57
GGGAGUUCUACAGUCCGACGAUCGGGUUCCCUUUGACUCCCCUGCUAACCCCACAUAAUUGAGAAUGUUUUGACCAAGUGUAAAAAUAGCUGGCCUUUUCCUUGUGAUUGGUCUUUAUUAGUCUUUUUAAUGCUGGAAUUCUCGGGUGCCAA	0.426
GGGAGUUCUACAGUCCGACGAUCCCUCAAACUCCUCUGUGACCAGUUUUGUCUCCAAGCACAUAACUCAUUCUCUCUAAUCUGAUGUCUCUGAAGAGCCUCACAGAGACAGUGGUAUGGCUGAACCCAUCGGAUGGAAUUCUCGGGUGCCAA	0.55
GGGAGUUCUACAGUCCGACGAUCGGGCAUUUUUCUACAAGAAGCAGUCAGCCUUCUCUCCCCCAUAAGGACUGGCUGUAACCUUAAGCCCAUCAAAGUUACUUCCAGCCUGGAGAGAACCUCACCAAACAGCUUGGAAUUCUCGGGUGCCAA	0.362
